Assay results of several laboratories.
Lines come from different studies, so protocols differ. “And” joins repeats or separate records; there may be more than shown. ± gives the spread as reported.

Substance	tested on	test	system	conditions	scale	quantity	result
lead	glioblastoma	CCK-8		10 µM, 24 h, unit not given	relative to: untreated control	viability	0.57
abamectin	HepG2	RNA-seq		10 µM, 24 h		regulated quantifiable genes	5.6%
KISEYRHYV	HN-30 (HLA-A2− HPV+)	111In release	peptide	concentration not given, 16 h, E:T 25:1 IVS 5, added: peptide-generated T-cell line		specific lysis	5.5%
LPLKMLNIPSINVH	stimulated healthy donor PBMCs	combinatorial multi-epitope tetramer staining, measured: DRB1*01:01 tetramer	peptide	concentration not given	relative to: CD4 T cells	antigen-specific CD4 T cells	0.52%
insulin human		measured: CAMK2A mRNA	EcoHIV-infected mouse, brain	i.p., dose not given	relative to: PBS	fold change	0.933
aspterric acid		root length	Arabidopsis thaliana Col-0 seeds	50.0 µg/mL, 7 days, dark		inhibition	99.2%
KLPQLCTEL	Ca-Ski (HLA-A2+ HPV+)	111In release	peptide	concentration not given, 16 h, E:T 25:1 IVS 5, added: peptide-generated T-cell line		specific lysis	34.1%
cucurbitacin B	MP38 (BAP1-mutant uveal melanoma)	cell viability, CellTiter-Glo		72 h		IC50	0.0141 µM
KLPQLCTEV	Ca-Ski (HLA-A2+ HPV+)	111In release	peptide	concentration not given, 16 h, E:T 25:1 IVS 5, added: peptide-generated T-cell line		specific lysis	70.8%
hexaarginine	PorA peptide pore	peptide binding, planar bilayer single-channel recording		0.5 µM, pH 7.4, -25 mV, cis side, 150 mM KCl		koff	4550 ± 450 s⁻¹
SFLLRNPNDKYEPF	BPAEC	fura-2	peptide	100 µM, added: EGTA 5 mM		sustained cytosolic Ca2+ increase	inhibited
nonaarginine	PorA peptide pore	peptide binding, planar bilayer single-channel recording		0.5 µM, pH 7.4, +20 mV, trans side, 150 mM KCl		koff	256 ± 25 s⁻¹
Tunicamycin	HEK293	western blot, measured: phospho-eIF2α over total eIF2α		10 µg/mL, 6 h, unit not given	relative to: mock	protein level	1.68 and 1.6 and 1.87

A few entries again:
Substance	tested on	test	system	conditions	scale	quantity	result
Tunicamycin	HEK293	western blot, measured: phospho-eIF2α over total eIF2α		10 µg/mL, 6 h, unit not given	relative to: mock	protein level	1.68 and 1.6 and 1.87
